# Results pooled from the literature.
# A part holds a random share of what one study measured. Substitutions count along the parent as printed.

# Sample 1
# Target: CCND2, cyclin fold, Cln2 fusion (human)
# Technique: yeast growth competition, sequencing
# Matrix: yeast
# Setting: weak parent motif
# Reference: not given
# Direction: higher = stronger binding
# Starting sequence: PKN2 docking peptide (human); VSAVQKLDFSDTM; partner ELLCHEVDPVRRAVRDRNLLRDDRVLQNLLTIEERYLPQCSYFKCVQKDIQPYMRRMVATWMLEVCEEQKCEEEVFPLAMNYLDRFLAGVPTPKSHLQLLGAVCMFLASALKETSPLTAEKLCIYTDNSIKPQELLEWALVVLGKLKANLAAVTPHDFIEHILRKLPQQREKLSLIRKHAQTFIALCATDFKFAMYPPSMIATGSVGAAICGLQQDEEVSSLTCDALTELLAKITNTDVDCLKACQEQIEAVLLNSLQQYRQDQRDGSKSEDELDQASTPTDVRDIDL
Variant,normalised enrichment score
VSLVQKLDFSDTM [A3L],0.712
VSAVQKLWFSDTM [D8W],0.36
VSAVQKLDFSNTM [D11N],0.715
VYAVQKLDFSDTM [S2Y],0.802
VSAVQKLDFSDTE [M13E],0.586
VSAVQKLDFSCTM [D11C],0.85
VSAVQKLDFSDPM [T12P],0.899
VSAVQALDFSDTM [K6A],0.277
VSAFQKLDFSDTM [V4F],0.215
GSAVQKLDFSDTM [V1G],0.641
CSAVQKLDFSDTM [V1C],0.93
VWAVQKLDFSDTM [S2W],0.238
VSAVQMLDFSDTM [K6M],0.489
VSAVQKLDGSDTM [F9G],0.163
VSCVQKLDFSDTM [A3C],0.33
VSAVQKLGFSDTM [D8G],0.163
VSTVQKLDFSDTM [A3T],0.47
VSYVQKLDFSDTM [A3Y],0.0557
VSAVQKNDFSDTM [L7N],0.094
VSAVQKLDFSFTM [D11F],0.282
VSAAQKLDFSDTM [V4A],0.357
VSAVQKLDFSDTH [M13H],0.593
VIAVQKLDFSDTM [S2I],0.372
VSAVQKLDFRDTM [S10R],0.702
VSAHQKLDFSDTM [V4H],0.189

# Sample 2
# Target: Sal-like protein 4, full length isoform B (SALL4, Homo sapiens, UniProt Q9UJQ4-2, residues 1-616)
# Technique: universal PBM
# Molecule type: double-stranded DNA, one strand shown
# Matrix: in vitro
# Tested at: not given
# Setting: 8-mer, flanks averaged, mean of replicates
# Direction: higher = stronger binding
Sequence,E-score
GCCATGTA,0.0688
GGTGGCAC,-0.275
ACGAGGTA,-0.018
CCCACCTA,0.00208
GCCACGCC,-0.232
AAGTAGAA,0.182
AGAGGAGA,-0.153
CAACCCGG,-0.415
AAAACTGT,0.214
TCATGGCA,-0.0269
ACGACACT,0.018
AAAGGAGC,-0.157
ACTACAGT,0.0339
CTTGACAA,0.134
ACGCCGAA,-0.174
CCGAATCG,-0.147
AGACTTTG,-0.0332
GGATAGAC,0.015
GAGGTCCA,-0.178
GTACACTA,0.0875
TAAAATAA,0.319
GGTGATAC,-0.147
AATGGCGA,0.125
GGCCCACA,-0.165
CGATTACC,-0.175

# Sample 3
# Target: Interferon regulatory factor 7, full length, phosphomimetic (IRF7, Homo sapiens, UniProt Q92985, residues 1-503, S101K/S471D/S472D/S475D/S476D/S477D/S483D/S484D/S487D)
# Technique: protein-binding microarray
# Molecule type: double-stranded DNA, one strand shown
# Matrix: in vitro
# Tested at: 250 nM
# Setting: 60-bp whole probe
# Added: salmon DNA 0.4 mg/ml
# Reference: random background probes
# Direction: higher = stronger binding
# Shared flanks, not repeated: GCCTAGCAC … GTCTTGATTCGCTTGACGCTGCTG
# Target sequence (chain): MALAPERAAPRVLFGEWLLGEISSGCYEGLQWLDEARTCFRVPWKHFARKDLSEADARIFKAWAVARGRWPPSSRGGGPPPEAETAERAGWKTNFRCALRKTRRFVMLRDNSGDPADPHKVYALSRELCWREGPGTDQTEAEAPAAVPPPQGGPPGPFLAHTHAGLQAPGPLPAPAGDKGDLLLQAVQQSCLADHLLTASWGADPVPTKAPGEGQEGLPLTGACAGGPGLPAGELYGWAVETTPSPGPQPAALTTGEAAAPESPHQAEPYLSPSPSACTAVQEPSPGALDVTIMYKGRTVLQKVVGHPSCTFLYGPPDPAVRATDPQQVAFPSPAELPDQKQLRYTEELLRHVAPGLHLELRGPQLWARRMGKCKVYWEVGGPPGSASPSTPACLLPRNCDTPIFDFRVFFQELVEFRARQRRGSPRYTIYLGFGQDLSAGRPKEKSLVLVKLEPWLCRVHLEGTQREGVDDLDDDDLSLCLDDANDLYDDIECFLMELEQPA
Sequence,log fluorescence [z-score]
AGTTGTTTTAAATTCTAATTGTGCTAG,0.382
GACGAATTGGGGTATCGAGACGTGCTA,-0.107
GACGATATCGGGACTGTAGACGTGCTA,-0.326
TTAAGACTGGGTCTCGGTTAGTGCTAG,0.669
TTAAGTATCGACTATCGGTTAGTGCTA,0.453
TTAGGCTTCCTTCTCCTTTAGTGCTAG,0.0449
GGTCCTCTGGGCTGTTTGGCCGTGCTA,-0.567
CCCTCCCTAATTCTGATTGGGTGCTAG,0.263
TTAGATTTCAGTTTCTATTAGTGCTAG,4.49
TTGGGACTGCTACTGCTTTAGTGCTAG,-0.785
GACGGTTTCGGTCTCGGGACGTGCTAG,7.89
GACGGTACCGACTATCGGGACGTGCTA,-0.221
TCAGTTTCGTATCTTCATACTGTGCTA,11.3
TCAAATGTCCTCCTCTCACTGTGCTAG,0.242
TCAACTCAGCACTTTGGCACTGTGCTA,-0.869
GACGGTTTCGGGACTGGGGCCGTGCTA,3.39
ATTTTTTTCTAATTGAAATCGTGCTAG,2.42
GAGGAGGGGCTGTTACTCTCGTGCTAG,-0.541
GGGTTTTTTAGGCAGACAGCGTGCTAG,-0.016
TTAGGTTTCCTTTTCCTTTGGTGCTAG,6.37
TATTGTTTCCTTCCTCTTTTGTGCTAG,2.63

# Sample 4
# Target: Fragile X messenger ribonucleoprotein 1, C-terminal low-complexity region (Fmr1, Mus musculus, UniProt P35922)
# Technique: RNA Bind-n-Seq
# Molecule type: RNA
# Matrix: in vitro
# Tested at: 200 nM
# Setting: whole 134-nt RNA, ends assumed
# Added: 150 mM KCl
# Reference: input library
# Direction: higher = stronger binding
# Shared flanks, not repeated: GGGAGUUCUACAGUCCGACGAUC … UGGAAUUCUCGGGUGUCAAGG
Sequence,log2 enrichment
UCAAGUCCUGUGCUACACAUCGUAUGUACCGAAUCGGCCCGGGGCCCGGGCCCGGAAAGUAUUAUGUUACGCCGUUCGGAUCUGCACUUC,-1.16
UACUCAGCACAGAAAUUCAGGAGACACAGACAAGUUCUUCCACGAUGUCGUACAGACGAGAACUAGAGAAAUACCGUGACCUGGAUGAAG,0.586
CCUCAAGUCCUGUGCUACACAUCGUAUGUACCGAAUCGGGCGGGGCGGGCGGGAAAGUAUUAUGUUACGCCGUUCGGAUCUGCACUUCCA,1.38
AAGUCCUGUGCUACACAUCGUAUGUACCGAAUCGGUUUUUUUGGUUUUUUUGGAGGAAAGUAUUAUGUUACGCCGUUCGGAUCUGCACUU,-0.802
GUCCUGUGCUACACAUCGUAUGUACCGAAUCGGGGUUUGGGGAAAGGGGUUUUUGGGGAAAGUAUUAUGUUACGCCGUUCGGAUCUGCAC,0.433
CAAGUCCUGUGCUACACAUCGUAUGUACCGAAUCGGGAAAGGGUGGGAAAAAGGGAAAGUAUUAUGUUACGCCGUUCGGAUCUGCACUUC,0.961
GUCCUGUGCUACACAUCGUAUGUACCGAAUCGGGGAAAAAGGGGUGGGGUUUUUGGGGAAAGUAUUAUGUUACGCCGUUCGGAUCUGCAC,0.518
AAGUCCUGUGCUACACAUCGUAUGUACCGAAUCGGGUUUGGGUUUUUUUGGGUGGGAAAGUAUUAUGUUACGCCGUUCGGAUCUGCACUU,1.02
AGUCCUGUGCUACACAUCGUAUGUACCGAAUCGGCCCCCGGGCCCCCGGGCCCCCGGAAAGUAUUAUGUUACGCCGUUCGGAUCUGCACU,-0.826
CCUCAAGUCCUGUGCUACACAUCGUAUGUACCGAAUCGGAGGUUUGGAAAGGAAAGUAUUAUGUUACGCCGUUCGGAUCUGCACUUCCAG,-0.00432
CACAGACAACACGCACCCACACAGACGCAGAGGGAAGGGGUUGGGAUGGGGACAGGGUGCACAGCAGGGCGGGGUAGGACCCCAGCCCCU,1.16
AAGUCCUGUGCUACACAUCGUAUGUACCGAAUCGGGGUUUGGGGUUUGGUUUGGGGAAAGUAUUAUGUUACGCCGUUCGGAUCUGCACUU,0.213
CCUGUGCUACACAUCGUAUGUACCGAAUCGGAAAAAAAGGAAAAAAAGGGAAAAAAAGGGGAAAGUAUUAUGUUACGCCGUUCGGAUCUG,-1.09
UCAAGUCCUGUGCUACACAUCGUAUGUACCGAAUCGGAAAGGAAAAAGGUUUGGAAAGUAUUAUGUUACGCCGUUCGGAUCUGCACUUCC,-0.992

# Sample 5
# Target: ABI1, truncated, D143A, DHFR fusion (Arabidopsis thaliana)
# Technique: DHFR PCA, deep sequencing
# Matrix: yeast
# Setting: methotrexate growth selection, single substitutions
# Added: (+)-ABA 0 µM
# Reference: wild-type fitted maximum
# Direction: higher = stronger binding
# Starting sequence: PYL1, truncated, DHFR fusion (Arabidopsis thaliana); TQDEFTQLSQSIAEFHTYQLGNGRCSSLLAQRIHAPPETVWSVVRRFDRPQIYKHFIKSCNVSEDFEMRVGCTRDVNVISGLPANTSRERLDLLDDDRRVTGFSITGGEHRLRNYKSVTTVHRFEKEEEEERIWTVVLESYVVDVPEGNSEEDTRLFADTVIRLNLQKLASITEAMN
Variant,relative binding score
N61K,52.6%
T86N,11.6%
V145H,-17.7%
S26G,20.4%
F56P,1.61%
V136Q,-11.4%
N149H,33.8%
P146A,22.7%
C25I,58.4%
E4R,2.54%
F124E,7.71%
A84L,20%
E152G,0.999%
T1M,27.6%
E139P,10.4%
R45T,-5.75%
L112Y,-2%
M176N,2.29%
H34A,39.7%
L93D,-4.89%
Y18A,-0.218%

# Sample 6
# Target: MAFF, bZIP domain (human)
# Technique: DHFR protein complementation
# Matrix: yeast
# Setting: single substitutions, most at no-binding floor
# Reference: wild-type JUN-FOS pair
# Direction: higher = stronger binding
# Starting sequence: JUN, bZIP domain (human); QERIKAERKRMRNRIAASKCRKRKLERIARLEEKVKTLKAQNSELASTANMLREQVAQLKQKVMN; partner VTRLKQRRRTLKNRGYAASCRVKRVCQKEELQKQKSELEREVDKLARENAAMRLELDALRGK
Variant,binding fitness
L31E,-1.55 natural log
A57L,-1.5 natural log
R30H,-1.3 natural log
M51G,-1.51 natural log
N42S,-1.43 natural log
L52Y,-1.48 natural log
R30V,-1.36 natural log
A57S,-1.43 natural log
V35L,-1.51 natural log
K39D,-1.45 natural log
A57W,-1.47 natural log
N42R,-0.526 natural log
L38F,-1.56 natural log
A40M,-1.36 natural log
L45C,-1.57 natural log
R30E,-1.41 natural log
Q41M,-1.43 natural log
A40T,-1.36 natural log
K36E,-1.21 natural log
E44L,-1.4 natural log
K34E,-1.47 natural log

# For quick reference, copied from above (sample 6):
Variant,binding fitness
L31E,-1.55 natural log
K39D,-1.45 natural log
R30H,-1.3 natural log
E44L,-1.4 natural log
V35L,-1.51 natural log
K34E,-1.47 natural log
N42S,-1.43 natural log
N42R,-0.526 natural log
M51G,-1.51 natural log
A57L,-1.5 natural log
A40T,-1.36 natural log
R30E,-1.41 natural log
L52Y,-1.48 natural log
A57W,-1.47 natural log
L38F,-1.56 natural log
